Published values of several laboratories.
Parts stem from different laboratories: compare values within a part only.

Sample 1 — technique: protein binding microarray; molecule type: double-stranded DNA, one strand shown; medium: in vitro; tested at: not given; reference: not given; reading: higher = stronger binding; endpoint: E-score
Target: Histone acetyltransferase KAT6A, both winged helices, GST fusion (KAT6A, Homo sapiens, UniProt Q92794, residues 1-181)
Setting: 8-mer, flanks averaged, mean of 2 arrays, mostly near background
Construct (chain): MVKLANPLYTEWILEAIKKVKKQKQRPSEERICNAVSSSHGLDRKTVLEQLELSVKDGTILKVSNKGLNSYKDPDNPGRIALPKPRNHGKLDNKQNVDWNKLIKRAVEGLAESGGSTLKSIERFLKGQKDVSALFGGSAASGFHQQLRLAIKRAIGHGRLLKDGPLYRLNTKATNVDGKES
CCCTACGG: 0.221
GAGTGACA: -0.0649
CCCGAAAG: -0.0555
CGAAACAC: 0.113
ACGCACAC: 0.133
GACGGAAC: 0.214
ACTCAGAC: -0.114
ACGCACCT: -0.00145

Sample 2 — technique: protein-binding microarray; molecule type: double-stranded DNA, one strand shown; medium: in vitro; tested at: not given; reading: higher = stronger binding; endpoint: E-score
Target: Max-binding protein MNT, bHLH-zipper, MAX partner unstated (MNT, Homo sapiens, UniProt Q99583, residues 220-300)
Setting: k-mer, scored over probes, only values ≥0.25
Construct (chain): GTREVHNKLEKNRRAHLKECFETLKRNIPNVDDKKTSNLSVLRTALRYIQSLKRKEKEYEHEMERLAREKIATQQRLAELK
ATTCCATG: 0.273
CTCAGCAC: 0.281
ACATGCCC: 0.368
ACACACAT: 0.32
AGGGGTGG: 0.31
CGGCGTGA: 0.32

Sample 3 — technique: protein-binding microarray; molecule type: double-stranded DNA, one strand shown; medium: in vitro; tested at: 2200 nM top; setting: 60-bp whole probe; together with: salmon DNA 0.4 mg/ml; reference: random background probes; reading: higher = stronger binding; endpoint: fitted relative affinity; constant ends, left off below: GCCTAGCAC … GTCTTGATTCGCTTGACGCTGCTG
Target: Interferon regulatory factor 7, full length, phosphomimetic (IRF7, Homo sapiens, UniProt Q92985, residues 1-503, S471D/S472D/S475D/S476D/S477D/S483D/S484D/S487D)
Chain of UniProt Q92985 (whole entry, unmodified, looked up): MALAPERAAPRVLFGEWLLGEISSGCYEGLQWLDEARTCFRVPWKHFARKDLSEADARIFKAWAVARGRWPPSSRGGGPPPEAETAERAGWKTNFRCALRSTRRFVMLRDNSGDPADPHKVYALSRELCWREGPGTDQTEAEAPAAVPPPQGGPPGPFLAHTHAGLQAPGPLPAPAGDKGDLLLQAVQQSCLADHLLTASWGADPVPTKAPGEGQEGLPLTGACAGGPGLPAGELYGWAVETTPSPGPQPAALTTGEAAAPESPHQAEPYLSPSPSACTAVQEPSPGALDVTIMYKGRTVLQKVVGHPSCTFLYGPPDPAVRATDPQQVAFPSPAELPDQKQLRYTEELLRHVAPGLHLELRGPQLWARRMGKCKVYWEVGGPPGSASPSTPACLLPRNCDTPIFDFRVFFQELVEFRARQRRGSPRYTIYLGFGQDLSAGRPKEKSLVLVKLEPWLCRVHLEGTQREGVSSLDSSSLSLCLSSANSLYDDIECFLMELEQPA
TCAACCTTGAACTTCGGACTGTGCTAG: 0.377 z-score
TTAGGACTGTGTTTCGGTTAGTGCTAG: 3.66 z-score
GGCGGTATCCTTCTCCTGACGTGCTAG: 0.427 z-score
GACGGTATCGACTTTCGGCACGTGCTA: 1.53 z-score
GAAGGACTGGGGTATCGGGACGTGCTA: -0.835 z-score

Other studies, line by line
PhoQ, residues 284 288 289 292 302 303 WVSSAF  fold induction (PhoP, residues 12 14 15 18 19 STWGI (Escherichia coli, UniProt P23836); Sort-seq, measured: YFP reporter; E. coli; PhoQ-PhoP variant library, together with: 10 µM Mg2+; reference: high Mg2+ state, higher = stronger signaling): 13

For quick reference, copied from above (sample 1):
CCCTACGG: 0.221
CGAAACAC: 0.113
